Experimental data collected from several papers.
Every numbered part comes from another study and shows a few of its results, in no order. Substitutions count along the parent as printed.

Sample 1 — method: competition protein-binding microarray; form: double-stranded DNA, one strand shown; sample: in vitro; tested at: 2 µM; added: Cbf1 competitor, 0.05 µM; reading: higher = stronger binding
Target: Phosphate system positive regulatory protein PHO4, full length, GST-tagged (PHO4, Saccharomyces cerevisiae, UniProt P07270, residues 1-312)
Notes: whole 60-bp probe, lowest competitor level
Target sequence (chain): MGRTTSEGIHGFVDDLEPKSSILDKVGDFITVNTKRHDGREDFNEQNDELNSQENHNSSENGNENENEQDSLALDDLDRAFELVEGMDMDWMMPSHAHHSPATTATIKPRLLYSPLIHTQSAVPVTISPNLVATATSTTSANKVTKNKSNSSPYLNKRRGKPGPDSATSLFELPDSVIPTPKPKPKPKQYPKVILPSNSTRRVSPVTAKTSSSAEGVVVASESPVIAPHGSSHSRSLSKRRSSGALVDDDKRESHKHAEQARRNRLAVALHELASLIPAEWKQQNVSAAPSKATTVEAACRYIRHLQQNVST
Oligonucleotide | fluorescence intensity
AAAGCGGTAATTTGGAGGGTGGGTGCAGATATCTATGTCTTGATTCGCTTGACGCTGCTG | 4530 a.u.
AAAGCGGTAATTTGATCGGTGGGTGCAGATATCTATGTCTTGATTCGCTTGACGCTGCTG | 3830 a.u.
GGTTGGCTCTGGTAACGCATGACAGGGTATGAAAAAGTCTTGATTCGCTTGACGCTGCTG | 6120 a.u.
GCACTTGCTGCCTGTCACCTGGTACAAAGCCATATGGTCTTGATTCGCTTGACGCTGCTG | 4290 a.u.
ACCCTTCAAATGGCACACCTGCAGGCAGAGGCATGGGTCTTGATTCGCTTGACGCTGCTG | 7240 a.u.
CTTTCCCGATCTTGATTGGTGGGTGTAGCACATTTGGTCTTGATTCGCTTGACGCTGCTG | 4140 a.u.
TGCGCAACAACTTTTCACGTGGAGTTATGTCTAGAAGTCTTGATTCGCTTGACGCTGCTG | 14000 a.u.
TATAATATCCGTTCGCATGTGAGTTGGCGACCTTTGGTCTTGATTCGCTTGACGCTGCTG | 6900 a.u.
AAGTGCCGGAGGCTCAGCGTGACGGTGCAGATAGGTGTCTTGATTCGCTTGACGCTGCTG | 6460 a.u.
GGATCTTCTCTTCTTCACCGGCGAGATGGGCTGCGGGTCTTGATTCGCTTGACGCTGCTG | 2580 a.u.
CGGGGTTAAGTTTTTCACGTGTTGTGCTTGCAGCAGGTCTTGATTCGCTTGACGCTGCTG | 14700 a.u.
TGCGCAACAACTTGTCACCGCACTTTATGTCTAGAAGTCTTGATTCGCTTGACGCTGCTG | 3820 a.u.

Sample 2 — target: CCNB1, cyclin fold, Cln2 fusion (human); method: yeast growth competition, sequencing; sample: yeast; notes: weak parent motif; relative to: not given; reading: higher = stronger binding
Starting sequence: SLBP docking peptide (human); ARYKRKLLINDFG
Change | normalised enrichment score
ARYKRKLLILDFG [N10L] | 1.3
ARYKRKLVINDFG [L8V] | 0.715
ARYVRKLLINDFG [K4V] | 0.788
ARYKRYLLINDFG [K6Y] | 0.423
ARYKRKLNINDFG [L8N] | 0.861
ARYNRKLLINDFG [K4N] | 0.739
ARYKRKILINDFG [L7I] | -1.01

Sample 3 — method: RNA Bind-n-Seq; form: RNA; sample: in vitro; tested at: 20 nM; notes: 6-mer, flanks averaged, single round; added: 150 mM LiCl; relative to: input library; reading: higher = stronger binding
Target: TAR DNA-binding protein 43, full length, His tag (TARDBP, Homo sapiens, UniProt Q13148, residues 1-414)
Oligonucleotide | 6-mer enrichment (R)
UUAGCA | 0.898
UCUCAG | 0.829
AAUAAG | 1.05
GGCAUA | 0.918

Other studies, line by line
Substance | target | test | system | conditions | scale | quantity | result
PhoQ, residues 284 288 289 292 302 303 NLGVHL | PhoP, residues 12 14 15 18 19 LWHCS (Escherichia coli, UniProt P23836) | Sort-seq, refers to: YFP reporter | E. coli | PhoQ-PhoP variant library, added: 10 µM Mg2+ | relative to: high Mg2+ state, higher = stronger signaling | fold induction | 3.02

Repeated from above (sample 3):
Oligonucleotide | 6-mer enrichment (R)
GGCAUA | 0.918
